Experimental data pooled from the literature.
Each numbered part is a random draw from the data of one study; scales do not carry over between parts.
Sequence of UniProt Q15303 (whole entry, looked up): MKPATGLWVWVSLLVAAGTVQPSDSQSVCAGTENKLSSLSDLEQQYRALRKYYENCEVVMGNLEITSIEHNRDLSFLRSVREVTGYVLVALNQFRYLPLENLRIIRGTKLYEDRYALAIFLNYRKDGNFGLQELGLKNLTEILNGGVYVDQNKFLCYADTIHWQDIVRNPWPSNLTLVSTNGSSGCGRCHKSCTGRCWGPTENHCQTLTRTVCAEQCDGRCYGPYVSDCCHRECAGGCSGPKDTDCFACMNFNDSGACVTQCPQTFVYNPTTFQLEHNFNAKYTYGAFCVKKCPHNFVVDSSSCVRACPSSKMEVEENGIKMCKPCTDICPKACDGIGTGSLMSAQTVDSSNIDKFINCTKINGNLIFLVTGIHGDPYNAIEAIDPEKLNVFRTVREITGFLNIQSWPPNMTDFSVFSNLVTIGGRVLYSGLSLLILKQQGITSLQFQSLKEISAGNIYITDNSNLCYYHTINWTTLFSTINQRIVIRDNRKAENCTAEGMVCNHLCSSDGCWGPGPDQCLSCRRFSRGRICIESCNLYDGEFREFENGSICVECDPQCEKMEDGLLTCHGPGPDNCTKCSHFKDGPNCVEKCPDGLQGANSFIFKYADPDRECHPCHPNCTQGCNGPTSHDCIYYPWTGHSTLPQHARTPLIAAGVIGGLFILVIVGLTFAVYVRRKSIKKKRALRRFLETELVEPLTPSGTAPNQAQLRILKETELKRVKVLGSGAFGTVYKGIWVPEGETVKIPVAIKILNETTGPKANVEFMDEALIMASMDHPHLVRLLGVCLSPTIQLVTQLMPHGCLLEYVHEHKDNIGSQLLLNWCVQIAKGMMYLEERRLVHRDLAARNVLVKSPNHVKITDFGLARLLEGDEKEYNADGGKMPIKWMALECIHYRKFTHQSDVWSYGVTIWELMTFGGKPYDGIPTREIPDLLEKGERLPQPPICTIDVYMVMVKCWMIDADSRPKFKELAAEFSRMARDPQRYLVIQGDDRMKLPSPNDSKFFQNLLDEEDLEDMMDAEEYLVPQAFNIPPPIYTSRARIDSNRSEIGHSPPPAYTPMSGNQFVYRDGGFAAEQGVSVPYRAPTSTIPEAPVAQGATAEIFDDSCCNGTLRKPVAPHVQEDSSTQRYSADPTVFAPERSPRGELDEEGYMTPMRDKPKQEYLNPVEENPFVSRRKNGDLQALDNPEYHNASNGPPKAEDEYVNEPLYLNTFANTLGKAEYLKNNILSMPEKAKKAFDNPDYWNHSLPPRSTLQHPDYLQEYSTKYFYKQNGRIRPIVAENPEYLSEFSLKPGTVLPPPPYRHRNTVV
Sequence of UniProt P29322 (whole entry, looked up): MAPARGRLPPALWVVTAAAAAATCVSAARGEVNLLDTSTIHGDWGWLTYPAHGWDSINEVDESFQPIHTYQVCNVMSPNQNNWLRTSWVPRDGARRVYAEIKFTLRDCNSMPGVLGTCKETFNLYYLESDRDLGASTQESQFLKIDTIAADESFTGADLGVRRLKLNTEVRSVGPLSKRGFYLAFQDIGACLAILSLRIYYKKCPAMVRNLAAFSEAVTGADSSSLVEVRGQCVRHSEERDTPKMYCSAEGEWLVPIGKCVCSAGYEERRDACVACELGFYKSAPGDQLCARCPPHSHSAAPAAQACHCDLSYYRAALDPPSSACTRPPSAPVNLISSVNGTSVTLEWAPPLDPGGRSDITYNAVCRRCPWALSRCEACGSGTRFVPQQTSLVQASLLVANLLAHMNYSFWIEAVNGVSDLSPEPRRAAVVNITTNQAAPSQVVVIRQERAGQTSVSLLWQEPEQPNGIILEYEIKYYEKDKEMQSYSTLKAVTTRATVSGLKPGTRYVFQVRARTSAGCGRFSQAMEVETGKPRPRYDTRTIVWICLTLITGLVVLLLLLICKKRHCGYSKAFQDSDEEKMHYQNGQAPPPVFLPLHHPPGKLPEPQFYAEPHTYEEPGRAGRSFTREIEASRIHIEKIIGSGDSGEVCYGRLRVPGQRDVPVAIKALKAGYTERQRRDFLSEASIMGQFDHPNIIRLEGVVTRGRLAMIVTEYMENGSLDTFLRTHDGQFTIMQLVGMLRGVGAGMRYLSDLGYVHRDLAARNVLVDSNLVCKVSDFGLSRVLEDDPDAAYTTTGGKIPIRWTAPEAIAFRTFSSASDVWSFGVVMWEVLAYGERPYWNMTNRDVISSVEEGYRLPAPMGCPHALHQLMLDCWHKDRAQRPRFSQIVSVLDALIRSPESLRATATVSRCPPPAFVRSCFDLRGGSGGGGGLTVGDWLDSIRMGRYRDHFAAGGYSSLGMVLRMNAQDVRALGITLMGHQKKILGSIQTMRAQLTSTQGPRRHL
Sequence of UniProt Q9BZL6 (whole entry, looked up): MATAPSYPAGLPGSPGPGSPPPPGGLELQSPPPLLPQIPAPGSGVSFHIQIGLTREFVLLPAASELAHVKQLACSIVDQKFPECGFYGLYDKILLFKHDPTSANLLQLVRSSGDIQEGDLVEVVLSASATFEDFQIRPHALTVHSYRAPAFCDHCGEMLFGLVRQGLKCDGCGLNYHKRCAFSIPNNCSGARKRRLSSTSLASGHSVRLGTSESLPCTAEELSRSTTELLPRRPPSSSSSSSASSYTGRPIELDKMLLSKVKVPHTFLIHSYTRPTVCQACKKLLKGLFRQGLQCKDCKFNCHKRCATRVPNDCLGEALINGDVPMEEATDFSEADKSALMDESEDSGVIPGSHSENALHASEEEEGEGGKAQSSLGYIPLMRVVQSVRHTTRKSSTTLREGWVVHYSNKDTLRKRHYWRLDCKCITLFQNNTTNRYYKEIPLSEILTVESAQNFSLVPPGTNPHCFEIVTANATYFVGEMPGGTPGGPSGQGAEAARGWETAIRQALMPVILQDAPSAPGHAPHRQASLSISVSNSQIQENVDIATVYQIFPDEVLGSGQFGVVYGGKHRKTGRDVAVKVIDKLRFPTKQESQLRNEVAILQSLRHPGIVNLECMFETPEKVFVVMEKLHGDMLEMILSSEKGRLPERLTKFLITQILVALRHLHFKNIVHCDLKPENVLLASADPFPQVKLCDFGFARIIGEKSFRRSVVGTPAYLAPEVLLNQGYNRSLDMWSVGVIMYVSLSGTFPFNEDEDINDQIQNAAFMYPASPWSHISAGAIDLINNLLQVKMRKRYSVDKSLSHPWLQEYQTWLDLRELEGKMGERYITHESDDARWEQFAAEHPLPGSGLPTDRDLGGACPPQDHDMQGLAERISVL
Sequence of UniProt Q9Y6E0 (whole entry, looked up): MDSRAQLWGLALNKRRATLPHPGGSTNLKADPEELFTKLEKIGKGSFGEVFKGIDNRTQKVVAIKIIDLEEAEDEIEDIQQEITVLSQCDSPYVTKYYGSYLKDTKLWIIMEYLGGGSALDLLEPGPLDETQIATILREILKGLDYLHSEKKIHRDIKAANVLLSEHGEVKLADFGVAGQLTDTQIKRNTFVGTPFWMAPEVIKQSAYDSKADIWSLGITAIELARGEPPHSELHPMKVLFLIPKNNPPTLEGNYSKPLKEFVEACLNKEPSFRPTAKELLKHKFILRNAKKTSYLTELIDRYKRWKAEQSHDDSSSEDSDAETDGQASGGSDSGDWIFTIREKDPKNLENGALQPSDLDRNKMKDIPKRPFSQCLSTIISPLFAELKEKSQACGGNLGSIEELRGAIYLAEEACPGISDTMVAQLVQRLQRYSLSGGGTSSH
Sequence of UniProt P21709 (whole entry, looked up): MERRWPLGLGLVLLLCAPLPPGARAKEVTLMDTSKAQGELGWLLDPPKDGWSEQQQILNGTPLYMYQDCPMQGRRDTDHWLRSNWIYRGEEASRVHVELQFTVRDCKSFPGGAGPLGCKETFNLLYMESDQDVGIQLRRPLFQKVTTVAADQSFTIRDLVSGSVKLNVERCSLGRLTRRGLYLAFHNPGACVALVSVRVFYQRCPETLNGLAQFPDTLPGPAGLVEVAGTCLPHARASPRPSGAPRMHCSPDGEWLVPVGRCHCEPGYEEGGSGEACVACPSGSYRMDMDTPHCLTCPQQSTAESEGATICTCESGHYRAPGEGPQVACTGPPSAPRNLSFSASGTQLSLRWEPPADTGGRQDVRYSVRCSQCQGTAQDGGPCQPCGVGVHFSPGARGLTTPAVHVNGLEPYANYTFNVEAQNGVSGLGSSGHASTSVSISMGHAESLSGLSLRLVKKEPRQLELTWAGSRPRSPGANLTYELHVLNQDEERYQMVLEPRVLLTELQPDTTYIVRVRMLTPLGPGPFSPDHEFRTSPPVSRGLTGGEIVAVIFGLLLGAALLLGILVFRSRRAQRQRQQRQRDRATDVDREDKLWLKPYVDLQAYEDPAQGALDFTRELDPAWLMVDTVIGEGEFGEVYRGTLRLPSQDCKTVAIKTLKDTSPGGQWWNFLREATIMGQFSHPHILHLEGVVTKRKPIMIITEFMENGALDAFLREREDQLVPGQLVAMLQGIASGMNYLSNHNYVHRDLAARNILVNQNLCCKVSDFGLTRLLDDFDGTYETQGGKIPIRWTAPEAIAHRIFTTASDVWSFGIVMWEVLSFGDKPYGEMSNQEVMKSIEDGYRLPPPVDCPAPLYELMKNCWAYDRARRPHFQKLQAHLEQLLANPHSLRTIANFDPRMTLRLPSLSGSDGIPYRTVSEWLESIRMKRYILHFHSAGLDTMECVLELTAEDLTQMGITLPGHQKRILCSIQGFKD
Sequence of UniProt Q96KB5 (whole entry, looked up): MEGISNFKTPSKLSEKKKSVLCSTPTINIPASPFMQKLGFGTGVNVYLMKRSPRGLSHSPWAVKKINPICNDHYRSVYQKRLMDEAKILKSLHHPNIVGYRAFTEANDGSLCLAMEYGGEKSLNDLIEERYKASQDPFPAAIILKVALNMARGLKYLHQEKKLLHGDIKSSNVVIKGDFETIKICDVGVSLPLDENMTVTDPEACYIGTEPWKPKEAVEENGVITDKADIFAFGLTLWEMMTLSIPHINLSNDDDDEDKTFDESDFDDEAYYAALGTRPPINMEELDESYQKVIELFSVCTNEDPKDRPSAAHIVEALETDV

Block 1
Cell line: HEK-293T-ACE2-TMPRSS2
Method: cell count
Tested at: 10 µM
CCc1nc(-c2ccc(C(=O)NC3CCCCCC3)cc2)cs1 gave a viability of 89%.
The viability of Cc1cccc(-c2[nH]c(C(C)(C)C)nc2-c2ccc3c(c2)OCO3)n1 is reported as 112%.
With CC(C)C[C@@H](C=O)NC(=O)[C@H](CC(C)C)NC(=O)[C@H](CC(C)C)NC(=O)OCc1ccccc1 the viability was 136%.
With O=C(O)c1csc(Cc2ccc(Cl)cc2)n1 the viability was 65%.
CCCCc1cc(=O)oc2c(C)c(O)ccc12 has a viability of 76%.
For CN(CCCNC(=O)c1cc2c(s1)-c1ccc(Cl)cc1SC2)Cc1ccccc1, the viability was 93%.
Cc1noc([C@@H]2CN(Cc3ccc(OC(F)(F)F)cc3)C[C@H]2CO)n1 gave a viability of 107%.
The viability of Cc1noc(C)c1C(=O)N1C[C@@H](CO)[C@H](c2ccncc2)C1 is reported as 112%.
For O=c1c(Cl)c(Cl)cnn1-c1ccccc1, the viability was 84%.
The viability of CCCS(=O)(=O)N1C[C@@H](COC)[C@H](c2nc(C)no2)C1 is reported as 101%.
With O=C(Nc1ccccc1)c1nc(S(=O)(=O)Cc2ccc(F)cc2)ncc1Cl the viability was 89%.
COc1ccccc1C1CCCN1C(=O)CCCn1nnnc1CN1CCOCC1 (stereo not drawn) gave a viability of 99%.
With Cc1oc2c(c1C(=O)N1CCCC1)C(=O)c1ccccc1C2=O the viability was 76%.
COc1ccc(CCNC(=O)Cn2ncc(Br)c(Br)c2=O)cc1 has a viability of 66%.
With COc1ccccc1C(=O)c1sc(Nc2ccc(C(C)C)cc2)nc1N the viability was 74%.
CC(C)Oc1cccc(-c2csc(C(N)=O)c2)c1 gave a viability of 65%.
O=C(c1ccc(Cl)cc1)N1C[C@@H](CO)[C@H](c2nc(C3CC3)no2)C1 gave a viability of 92%.
CC(C)(O)C#Cc1ccc(-c2nccn2Cc2ccc(F)cc2)cc1 has a viability of 66%.
Nc1ccc(OC2=C(Cl)C(=O)c3ccccc3C2=O)cc1 gave a viability of 88%.
Cc1cccc(NC(=O)CS(=O)(=O)c2nc(-c3ccccc3)cn2-c2ccc(Cl)cc2)c1C has a viability of 114%.
COc1ccc(-c2nc(CN(Cc3c(C)nn(C)c3C)C3CC3)c(C)o2)c(C)c1C has a viability of 93%.
O=c1c(Cl)c(Cl)cnn1Cc1ccccc1Br gave a viability of 220%.
For O=C(NCCc1ccncc1)C(F)(F)F, the viability was 77%.
O[C@H]1[C@H]2c3cc4c(cc3CN3CCC(=C[C@@H]1O)[C@H]23)OCO4 has a viability of 126%.
The viability of O=C1/C(=C\c2csnn2)CN(C2CCCCC2)C/C1=C\c1csnn1 is reported as 65%.

Block 2
Compound: COc1ccc2c(c1)/C(=C/c1cnc[nH]1)C(=O)N2
Read-out: enzyme activity
Action: inhibitor
Tested at: 0.5 µM
Baseline: control
The remaining activity was 103% (Ephrin type-A receptor 8 (EPHA8, Homo sapiens, UniProt P29322)).
For Receptor tyrosine-protein kinase erbB-4 (ERBB4, Homo sapiens, UniProt Q15303): remaining activity read 106%.
Ephrin type-A receptor 1 (EPHA1, Homo sapiens, UniProt P21709) — remaining activity: 97.3%.
The remaining activity was 45% (Non-receptor tyrosine-protein kinase TYK2 (TYK2, Homo sapiens, UniProt P29597)).
MAP kinase-interacting serine/threonine-protein kinase 1 (MKNK1, Homo sapiens, UniProt Q9BUB5) — remaining activity: 88.4%.
The remaining activity was 95.9% (Mitogen-activated protein kinase 8 (MAPK8, Homo sapiens, UniProt P45983)).
The remaining activity was 124% (Lymphokine-activated killer T-cell-originated protein kinase (PBK, Homo sapiens, UniProt Q96KB5)).
It gave 101% for remaining activity (Interleukin-1 receptor-associated kinase 1 (IRAK1, Homo sapiens, UniProt P51617)).
The remaining activity was 88.5% (Serine/threonine-protein kinase 26 (STK26, Homo sapiens, UniProt Q9P289)).
The remaining activity was 101% (Death-associated protein kinase 3 (DAPK3, Homo sapiens, UniProt O43293)).
It gave 110% for remaining activity (Protein kinase C beta type, isoform beta-II (PRKCB, Homo sapiens, UniProt P05771)).
The remaining activity was 60.2% (Serine/threonine-protein kinase D2 (PRKD2, Homo sapiens, UniProt Q9BZL6)).
Mitogen-activated protein kinase kinase kinase 11 (MAP3K11, Homo sapiens, UniProt Q16584) — remaining activity: 61.6%.
For Calcium/calmodulin-dependent protein kinase type II subunit gamma (CAMK2G, Homo sapiens, UniProt Q13555): remaining activity read 94.6%.
Casein kinase I isoform gamma-1 (CSNK1G1, Homo sapiens, UniProt Q9HCP0) — remaining activity: 106%.
It gave 21% for remaining activity (Myosin light chain kinase 2, skeletal/cardiac muscle (MYLK2, Homo sapiens, UniProt Q9H1R3)).
The remaining activity was 95.2% (MAP kinase-activated protein kinase 5 (MAPKAPK5, Homo sapiens, UniProt Q8IW41)).
It gave 53.1% for remaining activity (Serine/threonine-protein kinase 24 (STK24, Homo sapiens, UniProt Q9Y6E0)).
For NUAK family SNF1-like kinase 2 (NUAK2, Homo sapiens, UniProt Q9H093): remaining activity read 116%.

Block 3
Cell line: A-375
Tested at: 100 µM
Time: 18 h
CCOP(=S)(OCC)Oc1cc(C)nc(C(C)C)n1 has a viability of 67.9%.
With CC(C)C[C@H](CN)CC(=O)O the viability was 102%.
For CN1C(=O)COc2c(C(=O)NC3CN4CCC3CC4)cc(Cl)cc21 (stereo not drawn), the viability was 109%.
CCN1C[C@]2(OC(=O)c3ccccc3NC(C)=O)CC[C@H](OC)[C@@]34[C@@H]2C[C@@H]([C@@H]13)[C@@]1(O)C[C@H](OC)[C@H]2C[C@@H]4[C@]1(O)[C@H]2OC gave a viability of 83.8%.
NCC1(CC(=O)O)CCCCC1 has a viability of 85.7%.
Nc1ccncc1 gave a viability of 90.7%.

Block 4
Organism: Vesicular stomatitis virus
Read-out: pseudovirus infection
Tested at: concentration not given
Notes: VSV-G control pseudotype
Baseline: vehicle
For OC[C@H]1O[C@@H](c2ccc(Cl)c(Cc3ccc(O[C@H]4CCOC4)cc3)c2)[C@H](O)[C@@H](O)[C@@H]1O, the GFP-positive cells was 131%.
The GFP-positive cells of CCC(=O)O[C@@H](O[P@](=O)(CCCCc1ccccc1)CC(=O)N1C[C@H](C2CCCCC2)C[C@H]1C(=O)[O-])C(C)C.[Na+] is reported as 106%.
CN1CCc2nc(C(=O)N[C@@H]3C[C@@H](C(=O)N(C)C)CC[C@@H]3NC(=O)C(=O)Nc3ccc(Cl)cn3)sc2C1.Cc1ccc(S(=O)(=O)O)cc1.O has a GFP-positive cells of 114%.
The GFP-positive cells of CC[C@H](C)[C@H]1O[C@]2(CC[C@@H]1C)C[C@@H]1C[C@@H](C/C=C(\C)[C@@H](O[C@H]3C[C@H](OC)[C@@H](O[C@H]4C[C@H](OC)[C@@H](O)[C@H](C)O4)[C@H](C)O3)[C@@H](C)/C=C/C=C3\CO[C@@H]4[C@H](O)C(C)=C[C@@H](C(=O)O1)[C@]34O)O2 is reported as 151%.
The GFP-positive cells of CNC(=O)c1cnn(-c2nc(N)c3ncn([C@@H]4O[C@H](CO)[C@@H](O)[C@H]4O)c3n2)c1 is reported as 99.2%.
The GFP-positive cells of CCN[C@@H]1C[C@H](N)[C@@H](O[C@H]2OC(CN)=CC[C@H]2N)[C@H](O)[C@H]1O[C@H]1OC[C@](C)(O)[C@H](NC)[C@H]1O.CCN[C@@H]1C[C@H](N)[C@@H](O[C@H]2OC(CN)=CC[C@H]2N)[C@H](O)[C@H]1O[C@H]1OC[C@](C)(O)[C@H](NC)[C@H]1O.O=S(=O)(O)O.O=S(=O)(O)O.O=S(=O)(O)O.O=S(=O)(O)O.O=S(=O)(O)O is reported as 119%.
CCOc1cc([C@@H](CS(C)(=O)=O)N2C(=O)c3cccc(NC(C)=O)c3C2=O)ccc1OC has a GFP-positive cells of 110%.
With CC(C)(C)c1nc(-c2cccc(NS(=O)(=O)c3c(F)cccc3F)c2F)c(-c2ccnc(N)n2)s1 the GFP-positive cells was 85.9%.
CC(C)C[C@H](NC(=O)[C@H](CCc1ccccc1)NC(=O)CN1CCOCC1)C(=O)N[C@@H](Cc1ccccc1)C(=O)N[C@@H](CC(C)C)C(=O)[C@@]1(C)CO1 gave a GFP-positive cells of 3.22%.
The GFP-positive cells of COc1cc2nccc(Oc3ccc(NC(=O)C4(C(=O)Nc5ccc(F)cc5)CC4)cc3)c2cc1OC is reported as 81.8%.
With CCCCCCCCc1ccc(CCC(N)(CO)CO)cc1.Cl the GFP-positive cells was 83.7%.
CCCS(=O)(=O)Nc1ccc(F)c(C(=O)c2c[nH]c3ncc(-c4ccc(Cl)cc4)cc23)c1F gave a GFP-positive cells of 114%.
The GFP-positive cells of C[C@@H](O)[C@H]1C(=O)N2C(C(=O)O)=C(S[C@@H]3CN[C@H](CNS(N)(=O)=O)C3)[C@H](C)[C@H]12.O is reported as 105%.
The GFP-positive cells of Cc1[nH]c2ccccc2c1CCNCc1ccc(/C=C/C(=O)NO)cc1 is reported as 75.9%.
The GFP-positive cells of CC[C@H]1OC(=O)[C@H](C)[C@@H](O[C@H]2C[C@@](C)(OC)[C@@H](O)[C@H](C)O2)[C@H](C)[C@@H](O[C@@H]2O[C@H](C)C[C@H](N(C)C)[C@H]2O)[C@](C)(O)C[C@@H](C)CN(C)[C@H](C)[C@@H](O)[C@]1(C)O is reported as 112%.
For Cc1ccc(C(=O)Nc2ccc(CN3CCN(C)CC3)c(C(F)(F)F)c2)cc1C#Cc1cnc2cccnn12, the GFP-positive cells was 76.3%.
CCC[C@H](NC(=O)[C@@H]1[C@H]2CCC[C@H]2CN1C(=O)[C@@H](NC(=O)[C@@H](NC(=O)c1cnccn1)C1CCCCC1)C(C)(C)C)C(=O)C(=O)NC1CC1 gave a GFP-positive cells of 99.2%.
CO[C@H]1C[C@@H]2CC[C@@H](C)[C@@](O)(O2)C(=O)C(=O)N2CCCC[C@H]2C(=O)O[C@H]([C@H](C)C[C@@H]2CC[C@@H](OCCO)[C@H](OC)C2)CC(=O)[C@H](C)/C=C(\C)[C@@H](O)[C@@H](OC)C(=O)[C@H](C)C[C@H](C)/C=C/C=C/C=C/1C gave a GFP-positive cells of 136%.
The GFP-positive cells of CNC(=O)c1ccc(N2C(=S)N(c3ccc(C#N)c(C(F)(F)F)c3)C(=O)C2(C)C)cc1F is reported as 141%.
For C[C@@H]1CCO[C@H]2Cn3cc(C(=O)NCc4ccc(F)cc4F)c(=O)c([O-])c3C(=O)N12.[Na+], the GFP-positive cells was 98.9%.
N=C(N)NCCN1CCCCCCC1.O=S(=O)(O)O has a GFP-positive cells of 103%.
COC(=O)N[C@H](C(=O)N[C@@H](Cc1ccccc1)[C@@H](O)CN(Cc1ccc(-c2ccccn2)cc1)NC(=O)[C@@H](NC(=O)OC)C(C)(C)C)C(C)(C)C.O=S(=O)(O)O gave a GFP-positive cells of 99.8%.
The GFP-positive cells of CCCCCCCCCC(=O)N[C@@H](Cc1c[nH]c2ccccc12)C(=O)N[C@H](CC(N)=O)C(=O)N[C@@H](CC(=O)O)C(=O)N[C@@H]1C(=O)NCC(=O)N[C@@H](CCCN)C(=O)N[C@@H](CC(=O)O)C(=O)N[C@H](C)C(=O)N[C@@H](CC(=O)O)C(=O)NCC(=O)N[C@H](CO)C(=O)N[C@@H]([C@H](C)CC(=O)O)C(=O)N[C@@H](CC(=O)c2ccccc2N)C(=O)O[C@@H]1C is reported as 110%.
For Cc1ccc([C@@H]2O[C@H](CO)[C@@H](O)[C@H](O)[C@H]2O)cc1Cc1ccc(-c2ccc(F)cc2)s1, the GFP-positive cells was 117%.
CC(C)(C)c1cc(C(C)(C)C)c(NC(=O)c2c[nH]c3ccccc3c2=O)cc1O has a GFP-positive cells of 108%.

Repeated from above (block 4):
CC(C)(C)c1cc(C(C)(C)C)c(NC(=O)c2c[nH]c3ccccc3c2=O)cc1O has a GFP-positive cells of 108%.
The GFP-positive cells of CC[C@H](C)[C@H]1O[C@]2(CC[C@@H]1C)C[C@@H]1C[C@@H](C/C=C(\C)[C@@H](O[C@H]3C[C@H](OC)[C@@H](O[C@H]4C[C@H](OC)[C@@H](O)[C@H](C)O4)[C@H](C)O3)[C@@H](C)/C=C/C=C3\CO[C@@H]4[C@H](O)C(C)=C[C@@H](C(=O)O1)[C@]34O)O2 is reported as 151%.
The GFP-positive cells of CC[C@H]1OC(=O)[C@H](C)[C@@H](O[C@H]2C[C@@](C)(OC)[C@@H](O)[C@H](C)O2)[C@H](C)[C@@H](O[C@@H]2O[C@H](C)C[C@H](N(C)C)[C@H]2O)[C@](C)(O)C[C@@H](C)CN(C)[C@H](C)[C@@H](O)[C@]1(C)O is reported as 112%.
For C[C@@H]1CCO[C@H]2Cn3cc(C(=O)NCc4ccc(F)cc4F)c(=O)c([O-])c3C(=O)N12.[Na+], the GFP-positive cells was 98.9%.
The GFP-positive cells of C[C@@H](O)[C@H]1C(=O)N2C(C(=O)O)=C(S[C@@H]3CN[C@H](CNS(N)(=O)=O)C3)[C@H](C)[C@H]12.O is reported as 105%.
CO[C@H]1C[C@@H]2CC[C@@H](C)[C@@](O)(O2)C(=O)C(=O)N2CCCC[C@H]2C(=O)O[C@H]([C@H](C)C[C@@H]2CC[C@@H](OCCO)[C@H](OC)C2)CC(=O)[C@H](C)/C=C(\C)[C@@H](O)[C@@H](OC)C(=O)[C@H](C)C[C@H](C)/C=C/C=C/C=C/1C gave a GFP-positive cells of 136%.
CCOc1cc([C@@H](CS(C)(=O)=O)N2C(=O)c3cccc(NC(C)=O)c3C2=O)ccc1OC has a GFP-positive cells of 110%.
For Cc1ccc([C@@H]2O[C@H](CO)[C@@H](O)[C@H](O)[C@H]2O)cc1Cc1ccc(-c2ccc(F)cc2)s1, the GFP-positive cells was 117%.
